Experimental data from different studies.
Lines come from different studies, so protocols differ. “And” joins repeats or separate records; there may be more than shown. ± marks the error that the study gave.

Compound | assay | test system | conditions | half-life
O=C1NC(=O)c2cc(Nc3ccccc3)c(Nc3ccccc3)cc21 | substrate depletion | phenobarbital/β-naphthoflavone-induced rat liver microsomes | 1 µM, pH 7.4, 37 °C, with: NADPH | 0.0185 h
NC(=O)Nc1ccc(OC(F)(F)Cl)cc1 |  | PBS with 10% acetonitrile | 250 µM, pH 7.4, with: GSH 5 mM | ≥ 240 h
CCCCC[C@H](O)CC[C@@H]1[C@H]2Cc3cccc(OCC(=O)O)c3C[C@H]2C[C@H]1O | LC-MS/MS | Japanese PAH patients, no background therapy, plasma | inhaled, 54 µg, geometric mean | 0.94 h
CC(C)(C)c1nc(-c2cccc(N(Cc3cc(C(=O)[O-])ccc3OP(=O)([O-])[O-])S(=O)(=O)c3c(F)cccc3F)c2F)c(-c2ccnc(N)n2)s1.[Na+].[Na+].[Na+] |  | HBSS | 10 µM, 2 h incubation, pH 6.5 | > 2 h
C[C@H]1CN(C(=O)CC#N)[C@]12CCN(c1ncnc3[nH]ccc13)C2 |  | healthy Japanese males, plasma | oral, 50 mg single dose | 4 h
Cn1c(=O)n(C2CCC(=O)NC2=O)c2cccc(C#CCOC3CCN(C[C@H]4CC[C@H](n5cc(NC(=O)c6cnn7ccc(N8C[C@H]9C[C@@H]8CO9)nc67)c(C(F)F)n5)CC4)CC3)c21 (some centres unmarked) | H/D exchange |  | 0.5 µM, pH 7.8 | 2.4 h
OCc1nc2ccc(NCc3ccc(C(F)(F)F)cc3)cc2[nH]1 |  | human liver S9 | 1 µM, pH 7.4 | 3.22 h and 3.21 h
Cc1ccc(OCCN)cc1C(=O)N[C@H](C)c1cccc(-c2ccoc2)c1 |  | mouse liver microsomes | 1 µM | > 0.833 h
CN[C@H](CC(C)C)C(=O)N[C@H]1C(=O)N[C@@H](CC(N)=O)C(=O)N[C@H]2C(=O)N[C@H]3C(=O)N[C@H](C(=O)N[C@H](C(=O)O)c4cc(O)cc(O)c4-c4cc3ccc4O)[C@H](O)c3ccc(c(Cl)c3)Oc3cc2cc(c3O[C@@H]2O[C@H](CO)[C@@H](O)[C@H](O)[C@H]2O[C@H]2C[C@](C)(N)[C@H](O)[C@H](C)O2)Oc2ccc(cc2Cl)[C@H]1O |  | guinea pig, serum | intraperitoneal, 15 mg/kg, single dose | 2.82 h
C[C@H](N)C(=O)N[C@@H](C[SeH])C(=O)N1CCC[C@H]1C(=O)N[C@@H](CO)C(=O)N[C@@H](CC(=O)O)C(=O)N[C@@H](Cc1ccc(O)cc1)C(=O)N[C@@H](C[SeH])C(=O)N[C@@H](CCCCN)C(=O)N[C@@H](CCCNC(=N)N)C(=O)N[C@@H](CCCCN)C(=O)NCC(=O)N[C@@H](C[SeH])C(=O)NCC(N)=O |  |  | pH 7.5, 4 °C, with: EDTA 100 equiv | 96 ± 12 h
Cc1ccc2c(c1)C(=O)[C@]1(O)CCN(c3ccc4nc(C)ccc4c3)C1=N2.Cl |  | plasma | intravenous, 2 mg/kg | 10.3 h
CCN(CC)CCCC(C)Nc1cnc(C(=O)Nc2ccc(Cl)c3cccnc23)cn1 (centres unmarked) | metabolic stability | liver microsomes | 1 µM | > 0.5 h
CCCCCN(C)CCC(O)(P(=O)(O)O)P(=O)(O)OP(=O)(O)OC[C@H]1O[C@@H](n2ccc(N)nc2=O)C(F)(F)[C@@H]1O (some centres unmarked) | hydrolysis | HEPES buffer | pH 8.2, 37 °C | 7.6 h
CCCCCCCCCCCCCCCC(=O)N[C@@H](CCC(=O)NCCCC[C@@H]1NC(=O)[C@H]([C@@H](C)CC)NC(=O)[C@@H](NC(=O)[C@@H]2CCCN2C(=O)[C@H](Cc2ccccc2)NC(=O)[C@H](Cc2c[nH]cn2)NC(=O)[C@@H](NC(=O)[C@H](CC(=O)O)NC(=O)CC(C)C)[C@@H](C)O)CSSC[C@@H](C(=O)N[C@@H](CCCCN)C(N)=O)NC(=O)CNC(=O)[C@H](CCCCN)NC(=O)[C@H](CO)NC(=O)[C@H](CCCNC(=N)N)NC(=O)[C@@H]2CCCN2C(=O)[C@H](CCC(=O)O)NC(=O)[C@H](Cc2ccccc2)NC1=O)C(=O)O |  | healthy volunteers, plasma | subcutaneous, 60 mg single, lyophilised formulation | 57.1 ± 73 h
CCOC(=O)c1ccc(N)cc1 | metabolic stability | human liver microsomes |  | 0.333 h
CC1=NN(/C(=N\c2ccccc2)Nc2nnc(C)s2)C(c2ccc(C)cc2)S1 (centres unmarked) | plasma stability | mouse plasma |  | 0.0483 h
CC(C)c1nc(N(C)S(C)(=O)=O)nc(-c2ccc(F)cc2)c1/C=C/[C@@H](O)C[C@@H](O)CC(=O)O |  | healthy volunteers, plasma | oral, 10 mg single dose, day 1, given alone, BCRP probe | 18.8 h
CC(C)C[C@H](NC(=O)[C@@H](N)[C@@H](C)O)C(=O)N[C@@H](CCC(N)=O)C(=O)N1CCC[C@H]1C(=O)N1CCC[C@H]1C(=O)N[C@@H](C)C(=O)N[C@@H](CO)C(=O)N[C@@H](CO)C(=O)N[C@@H](CCCNC(=N)N)C(=O)N[C@@H](CCCNC(=N)N)C(=O)N[C@@H](CCCNC(=N)N)C(=O)N[C@@H](Cc1c[nH]cn1)C(=O)N[C@@H](Cc1ccccc1)C(=O)N[C@@H](Cc1c[nH]cn1)C(=O)N[C@@H](Cc1c[nH]cn1)C(=O)N[C@@H](C)C(=O)N[C@@H](CC(C)C)C(=O)N1CCC[C@H]1C(=O)N1CCC[C@H]1C(=O)N[C@@H](C)C(=O)N[C@@H](CCCNC(=N)N)C(=O)O | LC-MS | mouse plasma 100% | 37 °C | < 0.167 h
C[C@H](NC(=O)[C@H](C)NC(=O)[C@H](CCCNC(=N)N)NC(=O)[C@@H]1CCCN1C(=O)[C@H](CCCNC(=N)N)NC(=O)CNC(=O)c1ccc2c(c1)C(=O)OC21c2ccc(O)cc2Oc2cc(O)ccc21)C(=O)N[C@H](C(=O)N[C@@H](Cc1ccccc1)C(=O)N[C@@H](C)C(=O)N[C@@H](CCC(=O)O)C(=O)NCC(N)=O)[C@@H](C)O | CE-LIF | HeLa cytosolic lysate | 37 °C | 0.25 ± 0.0167 h
CCOC(=O)C1=C(CN2CCC[C@@H]2C(=O)Nc2ccc(B(O)O)cc2)NC(c2nccs2)=N[C@H]1c1ccc(F)cc1Br |  | human liver microsomes | 1 µM, pH 7.4 | 2.82 h
C[C@H]1[C@H]2N(C(=O)CN(C)N2C(=O)NCc2ccccc2)[C@@H](Cc2ccc(OP(=O)(O)O)cc2)C(=O)N1Cc1cccc2cccnc12 |  | patients, plasma | intravenous infusion, 280 mg/m2 over 4 h, mean | 0.5 h

Compound | assay | test system | conditions | half-life
CC1=NN(/C(=N/c2nnc(C)s2)Nc2ccc(C)c(C)c2)C(c2cc(F)c(F)c(F)c2)S1 (centres unmarked) | plasma stability | rat plasma |  | 0.472 h
OC[C@H]1O[C@@H](c2cc(Cc3ccc(C4CC4)cc3)c(Cl)c3c2CCO3)[C@H](O)[C@@H](O)[C@@H]1O |  | healthy Korean adults, fasted, plasma | oral, 0.3 mg single dose, separate tablets, with: co-administered drug 50 mg | 12.6 ± 4.04 h
O=c1c2ccccc2sn1Cc1ccc(Cl)cc1 |  | mouse liver microsomes | with: NADPH | < 1 h
COCCOc1cnc2ccn([C@H](C)c3nnc4c(F)cc(-c5cnn(C)c5)cn34)c(=O)c2c1 |  | patients, plasma | oral, 200 mg once daily, day 1 | 7 h
O=C1CC2(CCCC2)CC(=O)N1CCCCN1CCN(c2ncccn2)CC1 |  | induced rat liver microsomes | 1 µM, pH 7.4 | 0.12 ± 0.0383 h
Ic1ncco1 |  | PBS with 5% acetonitrile | 250 µM, pH 7.4, no glutathione | 60 h
COc1ccc([C@@H](O)c2cc(-c3ncnc4cc(N5CCOCC5)ccc34)c(F)cc2Cl)nn1 | geometric mean | healthy volunteers, plasma | oral, 100 mg, fasted oral suspension | 3.79 h
CNC(=O)c1ccc(N2C(=S)N(c3ccc(C#N)c(C(F)(F)F)c3)C(=O)C2(C)C)cc1F |  |  | oral, 5 mg/kg | 10.5 ± 1.7 h
CC(=O)O[C@H]1C(=O)[C@@]2(C)[C@H]([C@H](OC(=O)c3ccccc3)[C@]3(O)C[C@H](OC(=O)[C@H](OC(=O)OCc4cc(P(=O)(O)O)ccc4OP(=O)(O)O)[C@@H](NC(=O)c4ccccc4)c4ccccc4)C(C)=C1C3(C)C)[C@]1(OC(C)=O)CO[C@@H]1C[C@@H]2O |  | simulated gastric fluid | 10 µM, 2 h incubation, pH 1.2 | > 2 h
CC(C)NCC(O)COc1cccc2ccccc12 (centres unmarked) | substrate depletion | phenobarbital/β-naphthoflavone-induced rat liver microsomes | 1 µM, pH 7.4, 37 °C, with: NADPH | 0.0545 h
C[C@@H]1CCC[C@H](n2cnc(-c3cc(Cl)ccc3-n3cc(Cl)nn3)cc2=O)c2cc(ccn2)-c2c(cnn2C(F)F)NC1=O |  | rabbit |  | 2.5 ± 0.2 h
COC(=O)[C@H](N)CSSC[C@@H](N)C(=O)OC |  | minipig plasma | 100 µM, 37 °C | 0.0367 h
O=c1c2cc(Cl)ccc2[nH]c(=S)n1Cc1cccnc1 | plasma stability | human plasma |  | > 6.22 h
FC(F)=Cc1cc(C(F)(F)F)cc(C(F)(F)F)c1 | reactivity with N-α-acetyl-lysine, HPLC-MS | BBS buffer with acetonitrile | 1 mM, pH 10.2 | 1.3 h
N#Cc1ccc(Nc2nc(N)cc(Oc3c(F)cc(-c4ccc(C#N)cc4)cc3F)n2)cc1 |  | human plasma, diluted in PBS | 1 µM | 23.8 h
C[C@H](NC(=O)/C(C#N)=C/c1cccc(Br)n1)c1ccccc1 | LC-MS/MS | patients, plasma | oral, 4 mg/kg, cycle 1 day 1 | 7.1 h
O=C1Nc2c(C(F)(F)F)cccc2[C@@]1(c1ccc(O)cc1)N1CC(F)(F)C(F)(F)C1 |  | simulated gastric fluid with pepsin | 100 µM, pH 1.2, 37 °C | 0.167 to 1.28 h
OCc1ccc(-c2nn(Cc3ccccc3)c3ccccc23)o1 |  | human liver microsomes | with: NADPH and UDPGA | < 0.0833 h
Cc1ccc(NC(=O)c2ccc(CN3CCN(C)CC3)cc2)cc1Nc1nccc(-c2cncc(-c3oncc3C)c2)n1 |  | Parkinson's disease patients, plasma | oral, 50 mg/day, 7 days, steady state | 24.8 ± 3.7 h
C=C1CN2CCC[C@@]2(COc2nc(N3CCN(C(=O)/C=C/c4cc(CN(C)C)c(C)cn4)C[C@@H]3C)c3cc(Cl)c(-c4nc(N)cc(C)c4C(F)(F)F)c(F)c3n2)C1 |  |  | 1 µM, pH 7.4, with: 5 mM cysteine | > 9 h

A few entries again:
Compound | assay | test system | conditions | half-life
CCOC(=O)C1=C(CN2CCC[C@@H]2C(=O)Nc2ccc(B(O)O)cc2)NC(c2nccs2)=N[C@H]1c1ccc(F)cc1Br |  | human liver microsomes | 1 µM, pH 7.4 | 2.82 h
C[C@H]1[C@H]2N(C(=O)CN(C)N2C(=O)NCc2ccccc2)[C@@H](Cc2ccc(OP(=O)(O)O)cc2)C(=O)N1Cc1cccc2cccnc12 |  | patients, plasma | intravenous infusion, 280 mg/m2 over 4 h, mean | 0.5 h
CC1=NN(/C(=N/c2nnc(C)s2)Nc2ccc(C)c(C)c2)C(c2cc(F)c(F)c(F)c2)S1 (centres unmarked) | plasma stability | rat plasma |  | 0.472 h
OC[C@H]1O[C@@H](c2cc(Cc3ccc(C4CC4)cc3)c(Cl)c3c2CCO3)[C@H](O)[C@@H](O)[C@@H]1O |  | healthy Korean adults, fasted, plasma | oral, 0.3 mg single dose, separate tablets, with: co-administered drug 50 mg | 12.6 ± 4.04 h
